Experimental data collected from several papers.
Numbered parts are unrelated; each lists some results of a single study. Substitutions count along the parent as printed.

Sample 1
Target: Phosphate system positive regulatory protein PHO4, full length, GST-tagged (PHO4, Saccharomyces cerevisiae, UniProt P07270, residues 1-312)
Method: competition protein-binding microarray
Form: double-stranded DNA, one strand shown
Medium: in vitro
Concentration: 2 µM
Notes: whole 60-bp probe, lowest competitor level
Together with: Cbf1 competitor, 0.05 µM
Reading: higher = stronger binding
Shared flanks, not repeated: … GTCTTGATTCGCTTGACGCTGCTG
Construct (chain): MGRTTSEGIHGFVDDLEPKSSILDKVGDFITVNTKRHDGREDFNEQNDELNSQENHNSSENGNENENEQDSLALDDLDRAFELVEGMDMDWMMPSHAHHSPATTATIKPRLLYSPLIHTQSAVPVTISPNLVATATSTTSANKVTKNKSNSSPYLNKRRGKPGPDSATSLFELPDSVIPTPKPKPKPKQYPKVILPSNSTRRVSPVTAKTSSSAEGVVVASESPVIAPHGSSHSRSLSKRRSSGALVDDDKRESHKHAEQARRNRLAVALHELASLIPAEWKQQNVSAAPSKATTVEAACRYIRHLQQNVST
| Sequence | fluorescence intensity [a.u.] |
| --- | --- |
| CGATCGTAGCTTGGTGTCGTGATGGGGTTATTTCGG | 4850 |
| TTCTAGCGCTTCCATCACGTGCTGTGGCGCTATGGT | 17600 |
| CCTCAACAACGTCGGGGCGTGGGTATTGGGATATCG | 10300 |
| CGTCCTAGTGATTGTCATGTGGGTGCCATGAGGAAG | 9870 |
| GCGCCTTTACGCCTTCACGTGGAACAAGACACTTTA | 12200 |
| TCGGTCCCCTCATAAAATTATATATAAATGGGTTAG | 2790 |
| AATATGGCAGCCTCGCTGGTGTGCCACATAATATTA | 4910 |
| GTCGTTAATAGAAGCCATGTGGAAAGATAAAGGGGC | 8040 |

Sample 2
Target: ABI1, truncated, D143A, DHFR fusion (Arabidopsis thaliana)
Method: DHFR PCA, deep sequencing
Medium: yeast
Notes: methotrexate growth selection, single substitutions
Together with: (+)-ABA 0.0091 µM
Reference: wild-type fitted maximum
Reading: higher = stronger binding
Starting sequence: PYL1, truncated, DHFR fusion (Arabidopsis thaliana); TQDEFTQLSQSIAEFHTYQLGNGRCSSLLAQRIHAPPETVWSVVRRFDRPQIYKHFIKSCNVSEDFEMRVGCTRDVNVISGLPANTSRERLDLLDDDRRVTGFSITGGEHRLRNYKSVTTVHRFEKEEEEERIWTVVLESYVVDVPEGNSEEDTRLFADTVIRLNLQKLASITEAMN; partner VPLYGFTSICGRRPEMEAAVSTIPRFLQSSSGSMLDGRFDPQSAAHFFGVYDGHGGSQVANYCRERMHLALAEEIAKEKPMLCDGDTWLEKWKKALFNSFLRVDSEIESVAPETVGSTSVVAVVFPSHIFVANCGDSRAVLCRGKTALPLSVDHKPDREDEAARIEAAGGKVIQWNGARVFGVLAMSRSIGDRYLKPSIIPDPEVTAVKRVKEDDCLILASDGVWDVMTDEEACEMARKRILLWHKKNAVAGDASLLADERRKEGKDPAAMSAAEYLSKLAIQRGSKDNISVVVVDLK
| Change | relative binding score [%] |
| --- | --- |
| T106Y | 5.89 |
| L29R | -0.465 |
| D95I | -2.71 |
| H110M | 30.3 |
| G108P | -5.36 |
| G107L | -5.91 |
| G71Q | 1.06 |
| M68L | 63.6 |

Sample 3
Target: Transcription factor SOX-2, HMG box (Sox2, Mus musculus, UniProt P48432, residues 41-119)
Chain of UniProt P48432 (41-119, looked up): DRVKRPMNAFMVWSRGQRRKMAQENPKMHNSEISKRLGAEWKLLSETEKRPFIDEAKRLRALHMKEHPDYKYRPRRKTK
Method: Spec-seq
Form: double-stranded DNA, one strand shown
Medium: in vitro
Concentration: not given
Notes: whole probe, mean of replicates
Reference: not given
Reading: lower = stronger binding
Shared flanks, not repeated: GAGTCGTCTCGTCAGCAC … CCGTAGAGCACTCAGGTC
| Sequence | relative binding energy [ln ratio] |
| --- | --- |
| TATGGTT | -0.645 |
| TTAAGTT | 0.211 |
| CATTTCG | 0.302 |
| CATTTTT | -0.279 |
| CATTCAT | -2.06 |
| CATGCGT | 0.48 |
| CTCTGTT | -0.676 |
| CATCGAG | 0.421 |

Single results of other studies
Starting sequence: viral docking peptide; CKVKRKLFGSENI
| Change | target | test | test system | conditions | how to read | endpoint | value |
| --- | --- | --- | --- | --- | --- | --- | --- |
| CKVKKKLLGSENI [R5K F8L] | CCNB1, cyclin fold, Cln2 fusion (human) | yeast growth competition, sequencing | yeast | weak parent motif | reference: not given, higher = stronger binding | normalised enrichment score | 0.117 |

Repeated from above (sample 1):
| Sequence | fluorescence intensity [a.u.] |
| --- | --- |
| CGTCCTAGTGATTGTCATGTGGGTGCCATGAGGAAG | 9870 |
| GCGCCTTTACGCCTTCACGTGGAACAAGACACTTTA | 12200 |
| TCGGTCCCCTCATAAAATTATATATAAATGGGTTAG | 2790 |
| AATATGGCAGCCTCGCTGGTGTGCCACATAATATTA | 4910 |
